{"data": "Published values pooled from the literature", "note": "Every numbered part comes from another study and shows a few of its results, in no order. Substitutions count along the parent as printed."}
{"data": "Block 1", "target": "ABI1, truncated, D143A, DHFR fusion (Arabidopsis thaliana, UniProt P49597)", "method": "DHFR PCA, dose-response", "medium": "yeast", "notes": "Hill fit, not affinity, not high confidence", "together with": "(+)-ABA, dose series", "reading": "lower = more sensitive", "starting sequence": "PYL1, truncated, DHFR fusion (Arabidopsis thaliana, UniProt Q8VZS8); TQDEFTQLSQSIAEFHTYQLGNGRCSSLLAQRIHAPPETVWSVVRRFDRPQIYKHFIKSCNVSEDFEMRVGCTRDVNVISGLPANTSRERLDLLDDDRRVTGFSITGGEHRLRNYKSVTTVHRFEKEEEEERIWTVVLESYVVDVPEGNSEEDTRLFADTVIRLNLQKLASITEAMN"}
{"Change": "E128G", "ABA EC50 [µM]": 3.14}
{"Change": "A170N", "ABA EC50 [µM]": 61.2}
{"Change": "G81I", "ABA EC50 [µM]": 129}
{"Change": "H110Q", "ABA EC50 [µM]": 660}
{"Change": "T119P", "ABA EC50 [µM]": 291}
{"Change": "W41L", "ABA EC50 [µM]": 64}
{"Change": "S87V", "ABA EC50 [µM]": 10.1}
{"Change": "F157H", "ABA EC50 [µM]": 470}
{"data": "Block 2", "target": "UDP-N-acetylglucosamine--peptide N-acetylglucosaminyltransferase 110 kDa subunit (OGT, Homo sapiens, UniProt O15294)", "read-out": "binding", "method": "phage display NGS", "molecule type": "peptide", "reference": "input library", "chain of UniProt O15294 (whole entry, looked up)": "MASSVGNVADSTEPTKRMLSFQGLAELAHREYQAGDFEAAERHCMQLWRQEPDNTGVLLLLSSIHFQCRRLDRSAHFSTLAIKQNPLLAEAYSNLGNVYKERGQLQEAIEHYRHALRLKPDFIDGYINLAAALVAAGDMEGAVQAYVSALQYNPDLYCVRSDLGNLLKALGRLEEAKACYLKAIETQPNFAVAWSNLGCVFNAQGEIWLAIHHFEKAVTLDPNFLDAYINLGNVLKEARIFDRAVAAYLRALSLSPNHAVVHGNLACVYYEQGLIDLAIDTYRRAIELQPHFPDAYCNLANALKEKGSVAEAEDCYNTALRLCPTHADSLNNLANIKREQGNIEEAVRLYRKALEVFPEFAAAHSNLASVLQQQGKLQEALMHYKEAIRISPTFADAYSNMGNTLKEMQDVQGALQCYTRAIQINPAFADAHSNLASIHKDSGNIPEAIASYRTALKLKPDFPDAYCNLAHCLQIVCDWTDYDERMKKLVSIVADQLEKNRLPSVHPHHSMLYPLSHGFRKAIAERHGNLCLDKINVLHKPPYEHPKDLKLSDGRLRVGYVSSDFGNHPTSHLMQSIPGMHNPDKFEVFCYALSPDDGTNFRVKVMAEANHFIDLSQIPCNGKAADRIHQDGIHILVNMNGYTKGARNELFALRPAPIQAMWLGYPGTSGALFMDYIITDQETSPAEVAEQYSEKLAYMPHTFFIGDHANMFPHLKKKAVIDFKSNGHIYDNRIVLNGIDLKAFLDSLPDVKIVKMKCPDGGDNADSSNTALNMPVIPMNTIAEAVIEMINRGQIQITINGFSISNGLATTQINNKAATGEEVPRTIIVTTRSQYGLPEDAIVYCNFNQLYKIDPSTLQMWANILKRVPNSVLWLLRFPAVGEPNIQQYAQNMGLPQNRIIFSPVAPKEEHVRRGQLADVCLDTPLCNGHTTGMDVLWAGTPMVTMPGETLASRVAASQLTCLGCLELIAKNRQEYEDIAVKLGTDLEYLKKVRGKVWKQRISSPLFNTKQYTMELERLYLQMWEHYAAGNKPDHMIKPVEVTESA"}
{"Molecule": "FNHRNHHEPHRHHNA", "minimum log2 enrichment ratio": 2.96}
{"Molecule": "VPWQHVHTAHNRWHS", "minimum log2 enrichment ratio": 1.56}
{"Molecule": "AHHQGAVDHMRTHHS", "minimum log2 enrichment ratio": 1.93}
{"Molecule": "SWQPYQHHIWRMTYP", "minimum log2 enrichment ratio": 2.31}
{"data": "Block 3", "target": "inorganic phosphate, free oxyanion", "method": "microfluidic competitive inhibition", "medium": "in vitro, cell-free expressed", "tested at": "not given", "notes": "derived from inhibition constants, unchanged parent 615000 nM", "reading": "lower = stronger binding", "starting sequence": "PafA, mature enzyme, eGFP fusion (Elizabethkingia meningoseptica, UniProt Q9KJX5); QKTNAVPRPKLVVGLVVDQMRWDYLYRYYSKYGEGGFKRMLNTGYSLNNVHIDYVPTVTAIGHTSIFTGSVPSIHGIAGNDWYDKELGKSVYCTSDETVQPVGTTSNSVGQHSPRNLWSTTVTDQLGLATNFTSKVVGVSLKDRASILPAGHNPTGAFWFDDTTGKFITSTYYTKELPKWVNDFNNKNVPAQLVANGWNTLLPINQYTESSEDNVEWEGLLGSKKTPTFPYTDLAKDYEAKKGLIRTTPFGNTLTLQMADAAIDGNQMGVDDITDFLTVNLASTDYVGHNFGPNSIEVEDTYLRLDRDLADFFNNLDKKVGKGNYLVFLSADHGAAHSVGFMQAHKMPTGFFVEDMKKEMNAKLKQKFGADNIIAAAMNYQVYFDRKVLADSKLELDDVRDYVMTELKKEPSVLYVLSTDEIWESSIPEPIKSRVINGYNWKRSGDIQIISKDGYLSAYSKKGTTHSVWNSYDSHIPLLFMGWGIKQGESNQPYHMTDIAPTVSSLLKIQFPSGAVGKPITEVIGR"}
{"Change": "S170V", "phosphate dissociation constant [µM]": 189}
{"Change": "G127V", "phosphate dissociation constant [µM]": 623}
{"Change": "K236G", "phosphate dissociation constant [µM]": 532}
{"Change": "E489G", "phosphate dissociation constant [µM]": 433}
{"Change": "G110V", "phosphate dissociation constant [µM]": 687}
{"Change": "I476G", "phosphate dissociation constant [µM]": 393}
{"Change": "P293V", "phosphate dissociation constant [µM]": 691}
{"data": "Block 4", "target": "CCNB3, cyclin fold, Cln2 fusion (human)", "method": "yeast growth competition, sequencing", "medium": "yeast", "notes": "strong parent motif", "reference": "not given", "reading": "higher = stronger binding", "starting sequence": "viral docking peptide; KGVKRKLFAEDSS; partner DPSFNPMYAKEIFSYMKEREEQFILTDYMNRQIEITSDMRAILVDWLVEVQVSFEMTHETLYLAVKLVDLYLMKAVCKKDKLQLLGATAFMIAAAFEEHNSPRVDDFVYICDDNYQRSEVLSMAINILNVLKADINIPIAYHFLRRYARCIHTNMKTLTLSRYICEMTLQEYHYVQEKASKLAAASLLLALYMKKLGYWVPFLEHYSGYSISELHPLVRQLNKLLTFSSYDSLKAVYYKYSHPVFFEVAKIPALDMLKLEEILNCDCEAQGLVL"}
{"Change": "F8W", "normalised enrichment score": 0.207}
{"Change": "G2W", "normalised enrichment score": 1.67}
{"Change": "L7E", "normalised enrichment score": 0.617}
{"Change": "A9T", "normalised enrichment score": 3.18}
{"Change": "K6Y", "normalised enrichment score": 0.531}
{"note": "A few entries again (block 2):"}
{"Molecule": "FNHRNHHEPHRHHNA", "minimum log2 enrichment ratio": 2.96}
{"Molecule": "VPWQHVHTAHNRWHS", "minimum log2 enrichment ratio": 1.56}
